Measurements collected from several papers.
Protocols differ between the studies behind these lines. Several values in a cell are separate wells, animals, samples, runs or records. Numbers after ± are the reported error.

`CC(C)C[C@H](NC(=O)[C@@H](CCCCNC(=O)[C@@H](Cc1ccccc1)NC(=O)CCCCCCCNC(=O)CN1CCN(CC(=O)O)CCN(CC(=O)O)CCN(CC(=O)O)CC1)NC(=O)[C@H](Cc1ccc(O)cc1)NC(=O)[C@H](CO)NC(=O)[C@H](Cc1c[nH]c2ccccc12)NC(=O)[C@H](Cc1c[nH]cn1)NC(=O)[C@@H]1CCC(=O)N1)C(=O)N[C@@H](CCCNC(=N)N)C(=O)N1CCC[C@H]1C(=O)NCC(N)=O` [indium-111 labelled] has a tissue uptake of 0.33 ± 0.24 %ID/g (biodistribution; male athymic nude mice, DU-145 prostate cancer xenograft, spleen; intravenous, 0.037 MBq, 2 h post-injection).
`O=C([O-])CN1CCN(CC(=O)[O-])CCN(CC(=O)NC[C@H]2CC[C@H](C(=O)N[C@H](Cc3cnc4ccccc4c3)C(=O)NCCCC[C@H](NC(=O)N[C@@H](CCC(=O)O)C(=O)O)C(=O)O)CC2)CCN(CC(=O)[O-])CC1.[64Cu+2]` gave a tissue uptake of 3.92 %ID/g (ex vivo gamma counting; 22Rv1 tumour-bearing mice, bone; intravenous, 0.74 MBq, 24 h post-injection).
For `CCCC[C@H](NC(=O)CNC(=O)CNC(=O)[C@H](CCCCNC(=O)[C@H](CCN)NC(=O)C(C)c1ccc(CC(C)C)cc1)NC(=O)CN1CCN(CC(=O)O)CCN(CC(=O)O)CCN(CC(=O)O)CC1)C(=O)N[C@H]1CC(=O)NCCCC[C@@H](C(N)=O)NC(=O)[C@H](Cc2c[nH]c3ccccc23)NC(=O)[C@H](CCCNC(=N)N)NC(=O)[C@@H](Cc2ccccc2)NC(=O)[C@H](Cc2c[nH]cn2)NC1=O` (stereo partly drawn) [lutetium-177 labelled], the tissue uptake was 0.84 ± 0.27 %ID/g (C57 mice, tumour-bearing, stomach; 2 h).
The tissue uptake of `COc1ccc2c(c1)C(C)(C)C(/C=C/C1=C(Oc3ccc(C(=O)NCCCCOc4cc(CN(Cc5ccccn5)Cc5ccccn5)cc(CN(Cc5ccccn5)Cc5ccccn5)c4)cc3)C(=C/C=C3/N(CCCCS(=O)(=O)[O-])c4ccc(OC)cc4C3(C)C)CCC1)=[N+]2CCCCS(=O)(=O)[O-].O=[N+]([O-])[O-].O=[N+]([O-])[O-].[99Tc+].[C-]#[O+].[C-]#[O+].[C-]#[O+].[Zn+2]` is reported as 2 %ID/g and 1.79 %ID/g and 1.6 %ID/g and 1.67 %ID/g (healthy BALB/c mice, kidneys; 12 h).
The tissue uptake of `Cc1cc(C)n(CCN(CCN)CCCCCCNC(=O)[C@@H](N)Cc2c[nH]c3ccccc23)n1.[99Tc+].[C-]#[O+].[C-]#[O+].[C-]#[O+]` is reported as 0.56 ± 0.05 %IA/g (BALB/c nude mice, A549 xenograft, tumor; intravenous, 4 h).
`O=C(NCC1OC2CCC=CCCC2O1)c1ccc([18F])nc1` (stereo not drawn) has a tissue uptake of 0.5 ± 0.1 %ID/g (healthy female BALB/c nude mice, brain; intravenous, 7.4 MBq per mouse, 60 min).
With `CCCC[C@H](NC(=O)COCCOCCNC(=O)CN1CCN(CC(=O)O)CCN(CC(=O)O)CC1)C(=O)N[C@H]1CC(=O)NCCCC[C@@H](C(N)=O)NC(=O)[C@H](Cc2c[nH]c3ccccc23)NC(=O)[C@H](CCCNC(=N)N)NC(=O)[C@@H](Cc2ccccc2)NC(=O)[C@H](Cc2c[nH]cn2)NC1=O` [fluorine-18 labelled] the tissue uptake was 0.01 ± 0.03 %ID/g (C57 mice B16-F10 melanoma, brain; intravenous, 0.37 MBq, 2 h).
`COc1ccc(Nc2nc(Nc3ccc(OCCOCC[18F])cc3)ncc2Br)cc1` has a tissue uptake of 2.36 ± 0.46 %ID/g (ICR mice, S180 tumour-bearing, liver; intravenous, 370 kBq, 60 min).
`N#C[C@@H]1CCCN1C(=O)CNC(=O)c1ccnc2ccc(OCCCN3CCN(C(=O)CCc4ccc(O)c(CN5CCN6CC(=O)[O][Al-]([18F])([O]C(=O)C5)[O]c5ccc(CCC(=O)N7CCN(CCCOc8ccc9nccc(C(=O)NCC(=O)N%10CCC[C@H]%10C#N)c9c8)CC7)cc5C6)c4)CC3)cc12` (stereo partly drawn) gave a tissue uptake of 1.97 ± 0.41 %ID/g (BALB/c nude mice, U-87 MG xenograft, heart; 1 h).
The tissue uptake of `CCCC[C@H](NC(=O)CCCCCCCNC(=O)CN1CCN(CC(=O)O)CCN(CC(=O)O)CC1)C(=O)N[C@H]1CC(=O)NCCCC[C@@H](C(N)=O)NC(=O)[C@H](Cc2c[nH]c3ccccc23)NC(=O)[C@H](CCCNC(=N)N)NC(=O)[C@@H](Cc2ccccc2)NC(=O)[C@H](Cc2c[nH]cn2)NC1=O` [fluorine-18 labelled] is reported as 2.27 ± 0.5 %ID (C57 mice B16/F10 melanoma, intestines; intravenous, 1 h, together with: NDP-MSH 10 µg blockade).
`Cc1cc(C)n(CCN(CCN)CCCCCCNC(=O)[C@@H](N)Cc2c[nH]cn2)n1.[99Tc+].[C-]#[O+].[C-]#[O+].[C-]#[O+]` gave a tissue uptake of 0.91 ± 0.09 %IA/g (BALB/c nude mice, A549 xenograft, tumor; intravenous, 4 h).
For `CCCC[C@H](NC(=O)CNC(=O)CNC(=O)[C@H](CCCCNC(=O)[C@H](CC(=O)O)NC(=O)C(C)c1ccc(CC(C)C)cc1)NC(=O)CN1CCN(CC(=O)O)CCN(CC(=O)O)CCN(CC(=O)O)CC1)C(=O)N[C@H]1CC(=O)NCCCC[C@@H](C(N)=O)NC(=O)[C@H](Cc2c[nH]c3ccccc23)NC(=O)[C@H](CCCNC(=N)N)NC(=O)[C@@H](Cc2ccccc2)NC(=O)[C@H](Cc2c[nH]cn2)NC1=O` (stereo partly drawn) [lutetium-177 labelled], the tissue uptake was 0.9 ± 0.24 %ID/g (C57 mice, tumour-bearing, lung; 2 h).

A few entries again:
`N#C[C@@H]1CCCN1C(=O)CNC(=O)c1ccnc2ccc(OCCCN3CCN(C(=O)CCc4ccc(O)c(CN5CCN6CC(=O)[O][Al-]([18F])([O]C(=O)C5)[O]c5ccc(CCC(=O)N7CCN(CCCOc8ccc9nccc(C(=O)NCC(=O)N%10CCC[C@H]%10C#N)c9c8)CC7)cc5C6)c4)CC3)cc12` (stereo partly drawn) gave a tissue uptake of 1.97 ± 0.41 %ID/g (BALB/c nude mice, U-87 MG xenograft, heart; 1 h).
